Assay results pooled from the literature.
Compare with care: the assays were run in different laboratories. Values joined by “and” are separate records of one study, mostly repeats; a detail may differ. ± marks the error that the study gave.
RAD52: DNA repair protein RAD52 homolog (RAD52, Homo sapiens, UniProt P43351)
Ugcg: Ceramide glucosyltransferase (Ugcg, Mus musculus, UniProt O88693)
DRD3: D(3) dopamine receptor (DRD3, Homo sapiens, UniProt P35462)

CC(=O)Nc1ccc(C2CCCCC2)cc1
hepatic clearance (hepatocyte stability; cryopreserved human hepatocytes; 1 µM): 19 mL/min/kg

O[C@H]1[C@H](O)[C@@H](O)c2[nH]cnc2[C@@H]1O
IC50 (sweet almond β-glucosidase; inhibitor; 30 min, pH 6.8, added: p-nitrophenyl β-D-glucopyranoside): > 100000 nM

Nc1ncc(-c2cc(-c3cnn(CC(F)(F)F)c3)ncc2F)nc1C(=O)NC1CNCC(F)C1 (centres unmarked)
remaining binding (LATS1; KINOMEscan; 1 µM; relative to: DMSO control): 100%

COC1CN([C@H]2CC[C@H]([C@@]3(C)Oc4c(Cl)cc(C(=O)NCc5c(SC)cc(C)[nH]c5=O)c(C)c4O3)CC2)C1
log2 fold change (RNA-seq, item: SEPTIN10; human, whole blood; dose not given, 24 h; relative to: pretreatment baseline): 1.84

Cc1ccc(C(=O)c2oc3ccc(Cl)cc3c2NC(=O)CN2CCN(C)CC2)cc1
IC50 (RAD52; D-loop formation; added: RAD52 450 nM): 17600 ± 780 nM

O=C(NCCOc1ccc(F)cc1)c1ccc([C@H]2[C@@H](F)[C@@H](F)C[C@@H](F)[C@H]2F)cc1
hepatic clearance (hepatocyte stability; cryopreserved mouse hepatocytes; 1 µM): 69 mL/min/kg

CCCCCCCOCCCCCN1C[C@H](O)[C@@H](O)[C@H](O)[C@H]1CO
IC50 (Ugcg; enzyme activity, inhibitor, fluorescence): 300 nM

COc1ccc(Nc2cc(NC3CC3)n3ncc(C#N)c3n2)cc1
IC50 (CLK2 (Homo sapiens, UniProt P49760); inhibitor): 3000 nM

CCc1ccc(NS(=O)(=O)c2c(C)[nH]c(C)c2C(=O)N2CCCC2)cc1
IC50 (DRD3; β-arrestin recruitment, antagonist): 8600 nM

N#C[C@@H]1CC(F)(F)CN1C(=O)CNC(=O)c1ccnc2ccc(OCCCN3CCN(C(=S)Nc4ccc(C[C@H]5CN(CC(N)=O)CCN(CC(N)=O)CCN(CC(N)=O)CCN5CC(N)=O)cc4)CC3)cc12
IC50 (FAP (Homo sapiens, UniProt Q12884); enzyme activity, inhibitor, fluorescence): 11.9 nM

COc1ccccc1Nc1nc(NCCCO)c2ccccc2n1
IC50 (RAD52; D-loop formation; added: RAD52 450 nM): 4800 ± 850 nM

OC[C@@H]1[C@@H](O)[C@H](O)[C@@H](O)CN1CCCCCOCc1ccccc1
IC50 (Ugcg; enzyme activity, inhibitor, fluorescence): 750 nM

C=CC(=O)Nc1cc(Nc2ncnc(Nc3ccc(F)c(Cl)c3)n2)c(OC)cc1N(C)CCN(C)C
IC50 (EGFR (Homo sapiens, UniProt P00533, L858R/T790M); enzyme activity, inhibitor): 2 nM

CCCCCCCCOCCCCCN1C[C@H](O)[C@@H](O)[C@H](O)[C@@H]1CO
IC50 (Ugcg; enzyme activity, inhibitor, C6-NBD-ceramide in situ; RAW264.7; added: C6-NBD-ceramide): 50 nM

COCC1CN(C2CCN(c3cc(OC)c(Nc4ncc(Br)c(Nc5ccc6c(c5P(C)(C)=O)OCCO6)n4)cc3C)CC2)C1
IC50 (EGFR (Homo sapiens, UniProt P00533, del746-750); enzyme activity, inhibitor, TR-FRET): 0.68 nM

COc1ccc(OC)c(Nc2nc(NCCO)c3ccccc3n2)c1
IC50 (RAD52; ssDNA annealing, fluorescence quenching): 4300 nM

CCn1nc(Cl)c2c1-c1cnc(N)c(c1)O[C@H](C)c1cc(F)ccc1-c1nn(C)cc1C2
IC50 (NTRK2 (Homo sapiens, UniProt Q16620); enzyme activity, inhibitor, radiometric): 18 nM

CSc1nc2cc(Cl)c(Oc3cccc(Cl)c3Cl)cc2[nH]1
IC50 (ALDH1B1 (Homo sapiens, UniProt P30837); enzyme activity, inhibitor): 2130 nM

O=C1C(Cl)=C(NCCN2CCOCC2)C(=O)c2ncccc21
IC50 (PRMT3 (Homo sapiens, UniProt O60678); enzyme activity, inhibitor): 1500 nM

Cc1n[nH]c(C)c1CCCOc1cc(C(=O)NCCCCC(NC(=O)CN2CCN(CC(=O)O)CCN(CC(=O)O)CCN(CC(=O)O)CC2)C(=O)NCC2CCC(C(=O)NC(Cc3ccc4ccccc4c3)C(=O)NCCCCC(NC(=O)NC(CCC(=O)O)C(=O)O)C(=O)O)CC2)ccc1F (centres unmarked)
IC50 (FOLH1 (Homo sapiens, UniProt Q04609); competitive binding; 22Rv1; added: [68Ga]PSMA-617): 3.42 nM

Cc1cccc(NS(=O)(=O)c2c(C)[nH]c(C)c2C(=O)N2CCCC2)c1
IC50 (DRD3; β-arrestin recruitment, antagonist, PathHunter; added: dopamine EC80): > 100000 nM

CC(C)C[C@H](NC(=O)[C@H](CC(=O)O)NC(=O)[C@H](C)N)C(=O)N1CCC[C@H]1C(=O)N[C@@H](Cc1ccccc1)C(=O)N[C@@H](CCC(=O)O)C(=O)N[C@@H](C)C(N)=O
IC50 (Transcriptional regulator PlcR (Bacillus thuringiensis, UniProt A0ACM8Q0N2); reporter gene, inhibitor, lacZ reporter; 407 Cry−): 1640 ± 102 nM

Cc1nn(-c2cccc(N)c2)c(=O)c2cnc(Nc3ccc(N4CCNCC4)cc3)nc12
IC50 (RPS6KA1 (Homo sapiens, UniProt Q15418); enzyme activity, inhibitor): > 10000 nM

CCCCN(CC)CCNC(=O)c1cc2c(-c3ccc(Cl)cc3)nn(C)c2s1
IC50 (RAD52; D-loop formation; added: RAD52 450 nM): 10600 ± 1400 nM

CC(C)=CCC1CC(CC=C(C)C)C2(C)CCC(C(C)(C)O)C(=O)C2(C(=O)C(C)C)C1=O (centres unmarked)
IC50 (Beta-secretase 1 (Mus musculus, UniProt P56818); enzyme activity in cells, inhibitor): 9550 nM

Cc1noc(C)c1-c1cc(Cl)c(Nc2ccccc2C(=O)NO)c(Cl)c1
IC50 (DHODH (Homo sapiens, UniProt Q02127); enzyme activity, inhibitor, absorbance): 9200 nM

OC[C@H]1[C@@H](O)[C@H](O)[C@@H](O)CN1CCCCCOCc1ccccc1-c1ccccc1
IC50 (Ugcg; enzyme activity, inhibitor, fluorescence): 25 nM

CCCOC(=O)N1c2cc(CNC)ccc2[C@H](NC(=O)C(=O)Nc2ccc(Cl)c(F)c2)[C@H]1CNC(=N)N
IC50 (env (Human immunodeficiency virus 1, UniProt Q2N0S5); HIV-1 infection; Cf2Th-CD4/CCR5 cells; 48 h): 46700 nM

CCCCCN1C[C@@H](O)[C@H](O)[C@H](O)[C@@H]1CO
IC50 (Ugcg; enzyme activity, inhibitor, fluorescence): 15000 nM

Fc1ccc(Nc2nc(NC3CCCCC3)c3cc(C(F)(F)F)ccc3n2)cc1F
IC50 (ADRB2 (Homo sapiens, UniProt P07550, C125V); β-arrestin2 recruitment, antagonist, BRET; HEK293; mutant C125V, added: isoprenaline 1 µM): 200 nM

COc1cc(O)ccc1-c1c[nH]c2ncc(-c3cncc(C(=O)N(C)C)c3)cc12
IC50 (ABL1 (Homo sapiens, UniProt P00519); kinase activity, inhibitor, HTRF; 1 h preincubation, added: ATP 20 µM): 2.4 ± 0.8 nM

CCCCCCCCCOCCCCCN1C[C@H](O)[C@@H](O)[C@H](O)[C@@H]1CO
IC50 (Ugcg; enzyme activity, inhibitor, fluorescence): 50 nM

CCN(CC)CC(=O)Nc1cccc(-n2cc(-c3ccc4ccc(-c5cn(-c6cccc(NC(=O)CN(CC)CC)c6)nn5)cc4c3)nn2)c1
IC50 (LCK (Homo sapiens, UniProt P06239); enzyme activity, inhibitor): > 10000 nM

COc1ccc(CSc2ncccn2)cc1OS(=O)(=O)c1ccc([N+](=O)[O-])cc1
IC50 (Apelin receptor (APLNR, Homo sapiens, UniProt P35414); β-arrestin recruitment, antagonist): 3100 nM and ~3000 nM

CCCCCCOCCCCCN1C[C@H](O)[C@@H](O)[C@H](O)[C@@H]1CO
IC50 (Ugcg; enzyme activity, inhibitor, fluorescence): 100 nM

Sc1ncnc2nc[nH]c12
IC50 (CUGBP Elav-like family member 2, residues 40-212 (Homo sapiens, UniProt O95319); protein-RNA binding, inhibitor, fluorescence polarization; 200 nM protein, added: 10 nM RNA): 29500 ± 5870 nM

CCOC(=O)C[C@@H](C#N)NC(=O)[C@@H]1CCCN1C(=O)[C@@H](NC(=O)c1ccc(N)c(Cl)c1)C(C)(C)C
IC50 (Caspase-9 (CASP9, Homo sapiens, UniProt P55211); enzyme activity, inhibitor): 1010 nM

OC[C@@H]1[C@@H](O)[C@H](O)[C@@H](O)CN1CCCCCOCc1ccc(-c2ccccc2)cc1F
IC50 (Ugcg; enzyme activity, inhibitor, fluorescence): 25 nM
